Published values collected from several papers.
Each numbered part is a random draw from the data of one study; scales do not carry over between parts. Changes are numbered by the printed parent chain.
UniProt O24410, sequence (whole entry, looked up): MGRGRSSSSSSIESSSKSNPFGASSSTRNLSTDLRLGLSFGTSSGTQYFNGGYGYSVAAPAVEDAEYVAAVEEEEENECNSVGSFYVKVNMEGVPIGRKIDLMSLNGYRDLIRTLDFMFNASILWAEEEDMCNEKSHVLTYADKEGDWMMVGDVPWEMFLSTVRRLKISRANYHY
UniProt Q9FGV1, sequence (whole entry, looked up): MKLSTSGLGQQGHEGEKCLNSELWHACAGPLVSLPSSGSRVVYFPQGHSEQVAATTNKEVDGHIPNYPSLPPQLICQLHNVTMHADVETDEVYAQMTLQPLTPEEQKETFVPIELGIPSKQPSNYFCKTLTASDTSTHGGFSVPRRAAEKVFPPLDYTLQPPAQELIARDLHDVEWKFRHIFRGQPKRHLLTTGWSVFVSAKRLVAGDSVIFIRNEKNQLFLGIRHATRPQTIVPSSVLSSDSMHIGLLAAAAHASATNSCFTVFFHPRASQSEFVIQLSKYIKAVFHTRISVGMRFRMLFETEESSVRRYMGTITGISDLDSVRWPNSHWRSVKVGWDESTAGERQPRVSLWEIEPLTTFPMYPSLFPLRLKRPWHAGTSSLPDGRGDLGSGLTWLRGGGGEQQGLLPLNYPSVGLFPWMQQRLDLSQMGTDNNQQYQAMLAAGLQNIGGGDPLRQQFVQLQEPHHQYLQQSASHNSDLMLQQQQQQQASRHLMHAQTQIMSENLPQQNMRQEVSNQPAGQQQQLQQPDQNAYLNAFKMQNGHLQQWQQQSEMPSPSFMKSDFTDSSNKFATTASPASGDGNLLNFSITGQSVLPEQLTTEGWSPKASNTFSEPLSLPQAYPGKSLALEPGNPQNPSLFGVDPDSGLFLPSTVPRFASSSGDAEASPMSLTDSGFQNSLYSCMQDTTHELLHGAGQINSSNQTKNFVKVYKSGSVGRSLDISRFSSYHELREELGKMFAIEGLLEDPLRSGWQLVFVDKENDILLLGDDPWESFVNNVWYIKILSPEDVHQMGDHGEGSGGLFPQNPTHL
UniProt Q9XED8, sequence (whole entry, looked up): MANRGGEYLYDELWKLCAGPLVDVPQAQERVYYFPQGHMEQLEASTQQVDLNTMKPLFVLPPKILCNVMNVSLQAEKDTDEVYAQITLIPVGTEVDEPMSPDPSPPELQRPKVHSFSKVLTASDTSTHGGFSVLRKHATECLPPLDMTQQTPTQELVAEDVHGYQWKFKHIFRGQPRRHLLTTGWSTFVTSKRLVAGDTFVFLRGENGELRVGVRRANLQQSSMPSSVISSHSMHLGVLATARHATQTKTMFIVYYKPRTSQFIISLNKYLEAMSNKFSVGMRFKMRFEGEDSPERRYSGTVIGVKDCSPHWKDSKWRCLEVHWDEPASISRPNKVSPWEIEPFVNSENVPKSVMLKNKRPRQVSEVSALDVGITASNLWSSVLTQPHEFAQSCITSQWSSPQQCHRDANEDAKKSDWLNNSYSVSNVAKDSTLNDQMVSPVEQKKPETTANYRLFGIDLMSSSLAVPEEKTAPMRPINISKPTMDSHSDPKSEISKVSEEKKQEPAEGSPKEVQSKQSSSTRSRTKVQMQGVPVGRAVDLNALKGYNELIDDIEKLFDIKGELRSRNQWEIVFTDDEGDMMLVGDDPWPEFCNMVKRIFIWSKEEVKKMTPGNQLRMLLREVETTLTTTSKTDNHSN
UniProt Q94JM3, sequence (whole entry, looked up): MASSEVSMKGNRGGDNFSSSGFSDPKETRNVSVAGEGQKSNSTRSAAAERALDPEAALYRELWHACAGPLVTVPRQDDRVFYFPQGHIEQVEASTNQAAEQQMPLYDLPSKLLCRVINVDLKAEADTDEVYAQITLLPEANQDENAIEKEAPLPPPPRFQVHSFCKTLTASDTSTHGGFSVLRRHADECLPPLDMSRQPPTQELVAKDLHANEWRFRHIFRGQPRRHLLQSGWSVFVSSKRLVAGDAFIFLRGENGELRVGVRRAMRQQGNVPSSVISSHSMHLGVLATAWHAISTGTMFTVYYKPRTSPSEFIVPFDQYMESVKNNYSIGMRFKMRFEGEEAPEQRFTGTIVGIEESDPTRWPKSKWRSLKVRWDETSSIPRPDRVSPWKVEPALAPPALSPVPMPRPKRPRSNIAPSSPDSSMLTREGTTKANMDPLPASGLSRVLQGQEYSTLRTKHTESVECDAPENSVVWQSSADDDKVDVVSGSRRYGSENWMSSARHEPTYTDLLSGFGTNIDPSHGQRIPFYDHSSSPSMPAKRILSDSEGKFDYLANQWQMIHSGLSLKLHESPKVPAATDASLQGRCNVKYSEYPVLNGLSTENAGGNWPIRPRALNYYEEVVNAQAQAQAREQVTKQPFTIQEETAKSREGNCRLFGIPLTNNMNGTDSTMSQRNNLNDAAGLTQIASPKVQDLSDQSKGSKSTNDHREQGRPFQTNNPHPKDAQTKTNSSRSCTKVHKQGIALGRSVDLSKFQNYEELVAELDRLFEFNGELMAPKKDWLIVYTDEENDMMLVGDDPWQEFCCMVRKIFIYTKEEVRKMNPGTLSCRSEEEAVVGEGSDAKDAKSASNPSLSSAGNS
UniProt Q9XFM0, sequence (whole entry, looked up): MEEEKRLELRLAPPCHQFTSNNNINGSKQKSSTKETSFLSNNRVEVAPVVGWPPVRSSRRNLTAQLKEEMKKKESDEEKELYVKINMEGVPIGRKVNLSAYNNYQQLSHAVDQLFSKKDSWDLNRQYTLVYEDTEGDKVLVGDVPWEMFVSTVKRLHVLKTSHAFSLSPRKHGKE
UniProt Q93YR9, sequence (whole entry, looked up): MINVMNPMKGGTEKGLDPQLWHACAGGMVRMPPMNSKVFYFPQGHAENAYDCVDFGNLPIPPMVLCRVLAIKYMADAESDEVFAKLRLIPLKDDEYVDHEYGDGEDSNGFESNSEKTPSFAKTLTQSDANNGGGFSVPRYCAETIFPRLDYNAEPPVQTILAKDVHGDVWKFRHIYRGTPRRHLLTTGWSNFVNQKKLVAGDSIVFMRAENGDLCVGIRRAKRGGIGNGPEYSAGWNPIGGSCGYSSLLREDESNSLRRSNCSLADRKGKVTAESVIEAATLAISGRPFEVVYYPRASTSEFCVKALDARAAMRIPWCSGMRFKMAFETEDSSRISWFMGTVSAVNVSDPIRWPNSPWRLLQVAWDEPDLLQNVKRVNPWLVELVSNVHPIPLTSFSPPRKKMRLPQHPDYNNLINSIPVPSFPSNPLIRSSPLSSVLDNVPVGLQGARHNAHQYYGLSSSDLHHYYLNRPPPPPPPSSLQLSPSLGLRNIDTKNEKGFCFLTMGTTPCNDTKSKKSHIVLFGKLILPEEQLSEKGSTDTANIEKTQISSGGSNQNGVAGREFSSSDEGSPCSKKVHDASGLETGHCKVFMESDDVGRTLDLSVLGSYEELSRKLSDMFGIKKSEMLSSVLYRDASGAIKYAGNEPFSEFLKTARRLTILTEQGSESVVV
UniProt Q84WU6, sequence (whole entry, looked up): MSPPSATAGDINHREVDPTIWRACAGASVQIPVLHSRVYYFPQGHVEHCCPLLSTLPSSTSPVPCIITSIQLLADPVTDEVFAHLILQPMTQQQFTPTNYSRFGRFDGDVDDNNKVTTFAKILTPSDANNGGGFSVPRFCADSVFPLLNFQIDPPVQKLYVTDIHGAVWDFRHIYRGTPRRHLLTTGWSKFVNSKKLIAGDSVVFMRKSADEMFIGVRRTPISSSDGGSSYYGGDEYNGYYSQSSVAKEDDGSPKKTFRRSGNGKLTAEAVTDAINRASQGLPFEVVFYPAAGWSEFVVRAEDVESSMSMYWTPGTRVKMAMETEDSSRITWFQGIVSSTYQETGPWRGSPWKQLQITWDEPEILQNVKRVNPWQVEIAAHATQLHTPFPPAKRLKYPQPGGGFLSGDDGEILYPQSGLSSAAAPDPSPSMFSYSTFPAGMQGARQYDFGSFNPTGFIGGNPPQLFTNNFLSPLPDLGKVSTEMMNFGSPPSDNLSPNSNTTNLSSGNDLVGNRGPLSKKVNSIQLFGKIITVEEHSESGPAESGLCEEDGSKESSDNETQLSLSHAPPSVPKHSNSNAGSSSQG
UniProt Q9C7I9, sequence (whole entry, looked up): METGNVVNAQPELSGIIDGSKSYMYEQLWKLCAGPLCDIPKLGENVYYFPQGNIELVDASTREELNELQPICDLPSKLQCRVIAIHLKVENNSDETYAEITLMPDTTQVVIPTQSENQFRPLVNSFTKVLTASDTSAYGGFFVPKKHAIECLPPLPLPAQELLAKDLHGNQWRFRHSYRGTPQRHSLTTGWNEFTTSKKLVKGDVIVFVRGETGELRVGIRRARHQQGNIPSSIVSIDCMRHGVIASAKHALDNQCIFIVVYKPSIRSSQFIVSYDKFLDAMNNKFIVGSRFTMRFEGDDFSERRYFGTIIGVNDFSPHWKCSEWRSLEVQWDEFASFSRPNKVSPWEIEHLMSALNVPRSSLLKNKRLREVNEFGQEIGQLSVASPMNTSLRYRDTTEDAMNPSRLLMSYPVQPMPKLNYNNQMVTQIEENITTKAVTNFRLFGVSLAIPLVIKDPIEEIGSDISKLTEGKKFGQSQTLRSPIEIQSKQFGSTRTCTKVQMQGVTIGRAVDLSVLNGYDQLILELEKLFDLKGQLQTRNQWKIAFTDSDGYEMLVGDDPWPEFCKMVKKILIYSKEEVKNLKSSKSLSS
UniProt Q38831, sequence (whole entry, looked up): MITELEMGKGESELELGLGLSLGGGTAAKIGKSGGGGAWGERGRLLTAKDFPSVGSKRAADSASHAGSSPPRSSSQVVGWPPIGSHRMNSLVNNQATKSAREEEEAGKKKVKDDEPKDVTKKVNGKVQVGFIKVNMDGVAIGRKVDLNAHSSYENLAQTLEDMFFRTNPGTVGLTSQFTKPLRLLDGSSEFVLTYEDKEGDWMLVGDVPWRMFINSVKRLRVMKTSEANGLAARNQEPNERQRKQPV

Sample 1 — technique: RNA Bind-n-Seq; form: RNA; matrix: in vitro; tested at: not given; baseline: input RNA pool; direction: higher = stronger binding
Target: RING finger protein unkempt homolog, zinc fingers 1-6, GST-SBP tag (UNK, Homo sapiens, UniProt Q9C0B0, residues 30-357)
Setting: RNA with constant flanks, human and mouse sites, ends assumed
Constant ends, left off below: GGGAGUUCUACAGUCCGACGAUC … CAACAGAGGAUUGAGCAUCA
Target sequence (chain): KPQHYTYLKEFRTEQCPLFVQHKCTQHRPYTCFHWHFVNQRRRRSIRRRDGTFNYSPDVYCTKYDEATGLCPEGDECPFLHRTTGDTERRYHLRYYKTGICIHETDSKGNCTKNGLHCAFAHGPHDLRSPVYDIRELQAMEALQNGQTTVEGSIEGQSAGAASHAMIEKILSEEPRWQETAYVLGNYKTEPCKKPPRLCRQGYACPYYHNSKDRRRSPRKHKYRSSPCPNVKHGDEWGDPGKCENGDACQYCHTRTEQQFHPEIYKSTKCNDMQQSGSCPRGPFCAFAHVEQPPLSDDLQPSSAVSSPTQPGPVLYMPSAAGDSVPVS
Strand	bound/input enrichment [ratio]
ACACACACCCUAGAAUGCUCGCUUUGCAGCACAGGCAGGAGCAGCAGCAAGCAGCAGGUGUUUAGAUCCUUGGUUUUGAGAAAUUCCCCCCUAAGUAUGUGGCAAUAAGUAUAAGCCACU	0.292
UGCCAGAGUAUCAACCUCUUCGUGGAAAGCUUCCUCAAAAUGGUGGCCAAGCUGCUGGAGUCGGAGAAGCCGAACCUGCAGAUCCUUGGCACCAACUCGUUUGUGAAGUUCGCCAACAUU	0.0552
GCAAAGAUGGUAUGUUCAGAUUCUCCAUUUGCUGGGGCGCUAAGAAAACGACUGCUUGUACUCCAACGUGUCUUUUAUGCACUUUCUAAUAAGUACCAUGACAAAGGCAAAGUGAAACAG	0.197
CCCAGGAAGAAAGUGAAUCCUGAAACCCGGCAGAAAGGCCAGAUUGAGGGAGAAGUGGACCUCAUUGGGAUGGUGAGGCUGACAGAAACCAGGCAGCCUUUUGUCCCUGAGAACAAUCCA	0.0865
GCUUCUAAAAUGUGAUUAUCGACCAUGGUAUGCAUGAUCGUUGUAAUUGUUGACAUUCCUUUUAGAAGUUGUGAAAUGUUACAACUUGUGCUUAUGUAGACACAAUCUUCUGUCUCAGUA	0.485
GUUAAUAUGGAGUCAGUUUUUGACUAUAGUAUAAAUUCUGUACAUGAUGAGAAAAUGGAAGAGCAAACUGAAAUUCUUCAAAAUGGCUUCAAUCCUGAAGAAGAUAAAUGCAAUAACUGU	0.292
UGAACACAAUUCAUAAAGAUUUCUCUUUUAUACCUUCCUCACUGGCCCCCUCCACCUGCCCAUAGUCACCAAAUUCUGUUUUAAAUCAAUGACCUAAGAUCAACAAUGAAGUAUUUUAUA	3.33
CAAAACCUAGACGGCCUCUUGAACCAGCUGAAGAACUUCCCUGCGAGGCUUCGGCAGUAUGCUUCCUAUGAGUUUGUUCAGAGGCUGCUGAAAGGCUACAUGAAGAUAAACAUGUUGGUA	0.0966
AUUGAAAAUAUUCAAAGACUAGAUUUGACACCCGCAACUGCUAUUAAAUUAAAUAAAUACCUCUUGAGUCUCUGUACCAGUUAUCUCAAGUCUGAAGCCUGUAGUUGUCGAAUCCCAGUU	0.635
UCUCAUUGUCUCACACUCUGACAAGAGUGAGUUAUUAUUUUUUUCUUUUUUACAUUUUGUAUAGAGACAAAUUCAUUUAAACAAACUUAUUAUUAUUAUUAUUUUUUACAAAAUAUAUAU	24.6
CUUGCUGUUAAAUACACAGAUGCCAGAGGCCAGCCUCGCUAUCCAGUCAAUUCUGUUAAUAUUCUGAAAGCCCAUGGGAGAAGUCAGAUAGAAAGCAUGCUGAUCAAUGGCUAUGCGCUC	0.236

Sample 2 — target: DDIT3, bZIP domain (human); technique: DHFR protein complementation; matrix: yeast; baseline: wild-type JUN-FOS pair; direction: higher = stronger binding
Setting: single substitutions, most at no-binding floor
Starting sequence: JUN, bZIP domain (human); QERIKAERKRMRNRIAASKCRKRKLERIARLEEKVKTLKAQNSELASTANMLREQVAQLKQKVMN; partner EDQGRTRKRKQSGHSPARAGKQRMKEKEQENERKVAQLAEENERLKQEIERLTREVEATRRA
Change	binding fitness
V35A	0.0171 natural log
N42A	-0.75 natural log
I28W	0.00443 natural log
I28G	-7.59e-05 natural log
A49V	0.0168 natural log
A57S	-0.0206 natural log
T37W	0.0959 natural log
Q41G	-1.18 natural log
Q55L	0.0484 natural log
N42M	-1.14 natural log
S47E	0.179 natural log
A46D	-0.658 natural log
R53P	-1.2 natural log
A40G	-0.289 natural log
S47F	0.0429 natural log
K34H	0.0183 natural log
A40H	-0.0274 natural log
E54V	-0.2 natural log
A29P	-0.9 natural log
K36P	-1.3 natural log

Sample 3 — technique: DHFR PCA, deep sequencing; matrix: yeast; added: (+)-ABA 0.11 µM; baseline: wild-type fitted maximum; direction: higher = stronger binding
Target: ABI1, truncated, D143A, DHFR fusion (Arabidopsis thaliana)
Setting: methotrexate growth selection, single substitutions
Starting sequence: PYL1, truncated, DHFR fusion (Arabidopsis thaliana); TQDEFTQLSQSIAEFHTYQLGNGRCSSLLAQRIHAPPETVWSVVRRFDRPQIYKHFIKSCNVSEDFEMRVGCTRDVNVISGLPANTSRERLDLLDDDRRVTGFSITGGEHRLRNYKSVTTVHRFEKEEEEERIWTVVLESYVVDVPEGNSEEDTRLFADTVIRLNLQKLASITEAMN
Change	relative binding score
N85M	64.7%
S27M	-1.19%
F5W	36.7%
Y141V	-2.76%
N61Q	46%
D65P	54.2%
S87H	50%
E174T	12.6%
F47N	0.291%
N165E	3.1%
T1K	31%
I12Y	3.54%
F56M	-7.03%
D75M	35.5%
V118Y	-0.786%
L166D	0.269%
V78A	10%
D65W	3.49%
S63E	28%
V43D	-3.52%
L29W	-1.22%
V121M	6.22%
K126P	54.5%
E125K	36.7%

Sample 4 — Sequence: B1 (IAA5); technique: two-hybrid; direction: higher = firmer interaction
B1: IAA5 (Arabidopsis thaliana, UniProt P33078); chain MANESNNLGLEITELRLGLPGDIVVSGESISGKKRASPEVEIDLKCEPAKKSQVVGWPPVCSYRRKNSLERTKSSYVKVSVDGAAFLRKIDLEMYKCYQDLASALQILFGCYINFDDTLKESECVPIYEDKDGDWMLAGDVPWEMFLGSCKRLRIMKRSCNRG
partner	conditions	how to read	positive tests
ARF16 570-670 (Arabidopsis thaliana, UniProt Q93YR9)		baseline: out of 4 tests	2
ARF8 699-811 (Arabidopsis thaliana, UniProt Q9FGV1)		baseline: out of 2 tests	1
IAA28 (Arabidopsis thaliana, UniProt Q9XFM0)		baseline: out of 4 tests	4
IAA13 (Arabidopsis thaliana, UniProt Q38831)		baseline: out of 4 tests	2
ARF2 727-859 (Arabidopsis thaliana, UniProt Q94JM3)		baseline: out of 2 tests	0
ARF17 (Arabidopsis thaliana, UniProt Q84WU6)	weak activation fusion	baseline: out of 4 tests	1
ARF9 519-638 (Arabidopsis thaliana, UniProt Q9XED8)	weak activation fusion	baseline: out of 4 tests	0
ARF20 484-590 (Arabidopsis thaliana, UniProt Q9C7I9)		baseline: out of 4 tests	2
IAA20 (Arabidopsis thaliana, UniProt O24410)	weak activation fusion	baseline: out of 4 tests	2

Sample 5 — technique: RNAcompete; form: RNA; matrix: in vitro; tested at: 20 nM; setting: 7-mer, probes averaged, single round; baseline: mean of 7-mers; direction: higher = stronger binding
Target: PABPC1L2, full length, GST fusion (mouse, UniProt A0ABA7IW68)
Construct (chain): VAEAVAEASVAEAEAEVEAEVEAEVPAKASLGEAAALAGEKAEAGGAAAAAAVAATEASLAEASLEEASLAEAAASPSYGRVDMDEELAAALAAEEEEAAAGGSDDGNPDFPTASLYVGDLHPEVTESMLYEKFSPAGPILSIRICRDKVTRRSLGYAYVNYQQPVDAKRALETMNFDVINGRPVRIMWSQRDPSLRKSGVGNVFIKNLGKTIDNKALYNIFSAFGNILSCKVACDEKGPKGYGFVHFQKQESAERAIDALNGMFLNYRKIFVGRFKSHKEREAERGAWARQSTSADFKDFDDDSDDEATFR
Strand	7-mer Z-score
AGACAUU	-0.168
CUCGAGU	-0.347
UUUUUCU	-0.282
ACCAAGA	0.196
ACUCUAU	-0.141
CCCGGCA	-0.325
AAUCGAC	0.215
GCCGAGA	-0.05
AGCAUGU	-0.0736
CUUUCGU	-0.507
UGACCUG	-0.168
UCGCAUC	-0.387
CACAGUC	-0.228
CAGCCUA	-0.327
CGUUCUC	-0.505
CGACAUA	0.0986
ACAGUAU	-0.0536
CUUUUAG	0.287
GCGUGAC	-0.139
UAGUAAC	-0.141
UCGUGGU	-0.313

Sample 6 — target: CCNE1, cyclin fold, Cln2 fusion (human); technique: yeast growth competition, sequencing; matrix: yeast; setting: weak parent motif; baseline: not given; direction: higher = stronger binding
Starting sequence: RB1 docking peptide (human); PKPLKKLRFDIEG
Change	normalised enrichment score
D10I	-0.831
G13Q	1.1
R8G	0.116
P3T	0.391
P3G	0.347
P1V	0.178
P1C	1.03
F9Q	0.827
P3S	1.08
E12H	-0.48
K5Y	0.911
K5N	0.576
E12S	0.634
I11C	0.57
P3A	0.589
I11W	-0.0266
P3Q	-0.00153
L4M	0.85
G13A	0.685
E12N	0.0283
G13W	0.0219
K2F	0.888
D10T	-0.192
D10Y	1.18
P1H	0.68

Other studies, line by line
Molecule	target	test	system	conditions	how to read	measurement	result
PhoQ, residues 284 288 289 292 302 303 SLGVVW	PhoP, residues 12 14 15 18 19 SEGLL (Escherichia coli, UniProt P23836)	Sort-seq, item: YFP reporter	E. coli	PhoQ-PhoP variant library, added: 10 µM Mg2+	baseline: high Mg2+ state, higher = stronger signaling	fold induction	9.57

For quick reference, copied from above (sample 5):
Strand	7-mer Z-score
CUUUCGU	-0.507
ACAGUAU	-0.0536
ACCAAGA	0.196
UGACCUG	-0.168
ACUCUAU	-0.141
AGACAUU	-0.168
UUUUUCU	-0.282
AGCAUGU	-0.0736
CGUUCUC	-0.505
GCCGAGA	-0.05
UCGUGGU	-0.313
UCGCAUC	-0.387
UAGUAAC	-0.141
